# Published values from different studies.
# Each numbered part is a random draw from the data of one study; scales do not carry over between parts.

# Set 1
# Target: Prothrombin, mature alpha-thrombin (F2, Homo sapiens, UniProt P00734)
# Method: aptamer microarray, sandwich
# Molecule type: DNA with 2'F-ANA
# Sample: in vitro
# Tested at: 200 nM
# Notes: whole 15-mer aptamer, many near background
# Added: Cy3 exosite-II aptamer, 400 nM
# Reading: higher = stronger binding
# Strand: GGTTGGTGTGGTTGG
Modification,mean fluorescence intensity [a.u.]
2'F-ANA at 3 9 14,678
2'F-ANA at 3 4 5 6 10 11 13 14,48.1
2'F-ANA at 2 3 4 5 6 8 10 11 14,48.2
2'F-ANA at 1 6 9 11 13 15,208
2'F-ANA at 3 4 5 7 10 15,58.2
2'F-ANA at 1 2 3 5 6 7 13 15,51.1
2'F-ANA at 2 3 4 5 6 10 12 14,47.9

# Set 2
# Target: Ras GTPase-activating protein-binding protein 1, full length (G3BP1, Homo sapiens, UniProt Q13283)
# Chain of UniProt Q13283 (whole entry, looked up): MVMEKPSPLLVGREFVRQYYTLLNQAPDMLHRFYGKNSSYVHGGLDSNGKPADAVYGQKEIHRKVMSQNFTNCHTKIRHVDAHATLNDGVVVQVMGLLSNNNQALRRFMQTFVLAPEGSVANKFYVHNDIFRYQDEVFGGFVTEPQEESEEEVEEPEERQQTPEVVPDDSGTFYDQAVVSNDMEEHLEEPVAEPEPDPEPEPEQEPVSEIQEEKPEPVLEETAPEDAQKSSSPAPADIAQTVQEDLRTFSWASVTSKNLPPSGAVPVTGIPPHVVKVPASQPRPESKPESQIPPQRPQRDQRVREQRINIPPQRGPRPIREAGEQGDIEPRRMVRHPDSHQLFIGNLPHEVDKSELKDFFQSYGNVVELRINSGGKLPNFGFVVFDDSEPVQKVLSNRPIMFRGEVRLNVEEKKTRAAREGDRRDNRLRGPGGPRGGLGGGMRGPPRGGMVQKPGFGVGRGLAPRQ
# Method: RNA Bind-n-Seq
# Molecule type: RNA
# Sample: in vitro
# Tested at: 200 nM
# Notes: whole 134-nt RNA, ends assumed
# Added: 150 mM LiCl
# Relative to: input library
# Reading: higher = stronger binding
# Each molecule: 7-deaza-guanosine replaces G
# Constant ends, left off below: GGGAGUUCUACAGUCCGACGAUC … UGGAAUUCUCGGGUGUCAAGG
Strand,log2 enrichment
CAAGUCCUGUGCUACACAUCGUAUGUACCGAAUCGGGAGGGUUUGGGAAAAAGGGAAAGUAUUAUGUUACGCCGUUCGGAUCUGCACUUC,0.226
UGGCCCUGGUGGCAUGCGGGGAGGAAGAGGUGGCCUCAUGUAUCGUGGUGGUCCCGGUGGAAUGUUCAGAGGUGGCCGUGGUGGAGACAG,0.0395
CUGUGCUACACAUCGUAUGUACCGAAUCGGGUUUUUUGGGGUUUUUUGGGGUUUUUUGGGGAAAGUAUUAUGUUACGCCGUUCGGAUCUG,1.42
UCAAGUCCUGUGCUACACAUCGUAUGUACCGAAUCGGGUUUGGGAAAGGGAGGGAAAGUAUUAUGUUACGCCGUUCGGAUCUGCACUUCC,-0.45
UGUGCUACACAUCGUAUGUACCGAAUCGGGUUUUUUUGGGGUUUUUUUGGGGUUUUUUUGGGGAAAGUAUUAUGUUACGCCGUUCGGAUC,2.02
ACCAUGCAGGUGGGCAUCUUUGGCAAGUGGGGCAAGGGGGGGAUAGGGAGGGGGGUAACACUUUGGGAACAGGUGGUCCCAGGUCGUUUC,0.306
UGGCAGAGAAAUUGCAGCUGCAGGAGCAGCUCCAGGCAGAAACCGAGCUGUGUGCCGAGGCUGAGGAGCUCCGGGCCCGCCUGACCGCCA,-0.763
GUCCUGUGCUACACAUCGUAUGUACCGAAUCGGCCCCCCGGCCCCCCGGCCCCCCGGGAAAGUAUUAUGUUACGCCGUUCGGAUCUGCAC,-0.167

# Set 3
# Target: Centromere-binding protein 1, full length, N-terminal tag (CBF1, Saccharomyces cerevisiae, UniProt P17106, residues 1-351)
# Chain of UniProt P17106 (whole entry, looked up): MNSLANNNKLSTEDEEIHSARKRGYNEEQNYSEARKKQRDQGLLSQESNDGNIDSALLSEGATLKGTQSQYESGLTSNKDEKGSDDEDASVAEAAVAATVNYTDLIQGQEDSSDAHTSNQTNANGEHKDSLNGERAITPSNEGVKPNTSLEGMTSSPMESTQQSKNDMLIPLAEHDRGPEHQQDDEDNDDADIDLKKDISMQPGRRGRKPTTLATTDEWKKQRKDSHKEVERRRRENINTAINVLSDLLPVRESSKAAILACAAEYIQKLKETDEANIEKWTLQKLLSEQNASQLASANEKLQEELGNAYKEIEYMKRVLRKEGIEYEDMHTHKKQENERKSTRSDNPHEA
# Method: protein-binding microarray
# Molecule type: double-stranded DNA, one strand shown
# Sample: in vitro
# Tested at: 0.8 µM
# Notes: whole 60-bp probe, no competitor
# Reading: higher = stronger binding
# Constant ends, left off below: … GTCTTGATTCGCTTGACGCTGCTG
Strand,fluorescence intensity
CTACCGTGAGCGACTCATGACGCGCGTGTGCTATTC,578 a.u.
GAATTCCGGAGGGCGCACGAGCCACCCGGGTCGTAG,542 a.u.
GAAAGCACATGATATCACCAGACGTGTTGCACTTAG,1150 a.u.
CTACCCACATTTTTTCACCTGACTCCGGTCCTGTTC,831 a.u.
CTAGAGATGGGAGGCAACGTGATGTGGTTCATATTC,1170 a.u.
GAAGGTGAATTGAATCATGTGCCAAGGTTTTGTTAG,1690 a.u.
GAACATGAAAAGGTCCACGTTGCTGTCGCTGGATAG,590 a.u.
GAATGGAAGAGAAGTCACATTCGTGAAAGGCACTAG,567 a.u.
GAATTATACATCTGTCACGTAAACCATTGAAAATAG,632 a.u.

# Single results of other studies
Molecule,target,assay,system,setting,how to read,measurement,value
"PhoQ, residues 284 288 289 292 302 303 SASVAL","PhoP, residues 12 14 15 18 19 TPLRH (Escherichia coli, UniProt P23836)","Sort-seq, item: YFP reporter",E. coli,"PhoQ-PhoP variant library, added: 10 µM Mg2+","relative to: high Mg2+ state, higher = stronger signaling",fold induction,0.921

# Excerpt of the above (set 3):
Strand,fluorescence intensity
GAAGGTGAATTGAATCATGTGCCAAGGTTTTGTTAG,1690 a.u.
GAACATGAAAAGGTCCACGTTGCTGTCGCTGGATAG,590 a.u.
GAATGGAAGAGAAGTCACATTCGTGAAAGGCACTAG,567 a.u.
GAATTATACATCTGTCACGTAAACCATTGAAAATAG,632 a.u.
